Measurements gathered from unrelated publications.
Each numbered part is a random draw from the data of one study; scales do not carry over between parts. Changes are numbered by the printed parent chain.

Sample 1
Target: vanadate, free oxyanion
Technique: microfluidic competitive inhibition
Matrix: in vitro, cell-free expressed
Tested at: not given
Notes: derived from inhibition constants, unchanged parent 676 nM
Reading: lower = stronger binding
Starting sequence: PafA, mature enzyme, eGFP fusion (Elizabethkingia meningoseptica, UniProt Q9KJX5); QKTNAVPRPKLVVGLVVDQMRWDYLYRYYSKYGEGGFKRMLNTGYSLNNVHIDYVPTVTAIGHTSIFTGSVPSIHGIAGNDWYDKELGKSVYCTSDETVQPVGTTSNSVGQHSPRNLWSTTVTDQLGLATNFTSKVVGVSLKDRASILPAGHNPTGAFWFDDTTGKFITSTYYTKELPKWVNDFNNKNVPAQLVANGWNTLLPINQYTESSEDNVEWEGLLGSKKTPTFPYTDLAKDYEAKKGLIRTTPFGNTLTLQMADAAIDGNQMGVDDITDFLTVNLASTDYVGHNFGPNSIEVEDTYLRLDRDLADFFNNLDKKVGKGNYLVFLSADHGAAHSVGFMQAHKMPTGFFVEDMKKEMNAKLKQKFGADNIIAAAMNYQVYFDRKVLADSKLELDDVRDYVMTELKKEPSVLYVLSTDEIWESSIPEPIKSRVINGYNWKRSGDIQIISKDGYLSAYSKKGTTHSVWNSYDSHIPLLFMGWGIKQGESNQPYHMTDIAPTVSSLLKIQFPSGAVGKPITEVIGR
`T57V` — result for “oxyanion analog dissociation constant”: 0.369 µM.
`D275G`: “oxyanion analog dissociation constant” 0.94 µM.
`K175G`: “oxyanion analog dissociation constant” 1.34 µM.
`G79A` — result for “oxyanion analog dissociation constant”: 0.634 µM.
Under “oxyanion analog dissociation constant”, `W483V` is recorded as 0.681 µM.
`H466G` — result for “oxyanion analog dissociation constant”: 23.3 µM.
Under “oxyanion analog dissociation constant”, `Q448G` is recorded as 0.811 µM.
`V388A` — result for “oxyanion analog dissociation constant”: 0.772 µM.
Under “oxyanion analog dissociation constant”, `G369A` is recorded as 0.732 µM.
Under “oxyanion analog dissociation constant”, `L506V` is recorded as 0.69 µM.
For `D420G`, “oxyanion analog dissociation constant” read 0.719 µM.
`R386V`: “oxyanion analog dissociation constant” 0.734 µM.
Under “oxyanion analog dissociation constant”, `Y439G` is recorded as 3.04 µM.

Sample 2
Target: TAR DNA-binding protein 43, full length, His tag (TARDBP, Homo sapiens, UniProt Q13148, residues 1-414)
Technique: RNA Bind-n-Seq
Molecule type: RNA
Matrix: in vitro
Tested at: 20 nM
Notes: 6-mer, flanks averaged, single round
With: 150 mM LiCl
Relative to: input library
Reading: higher = stronger binding
`ACGAUC` — result for “6-mer enrichment (R)”: 0.796.
Under “6-mer enrichment (R)”, `UUGGAG` is recorded as 1.11.
Under “6-mer enrichment (R)”, `GGAGUC` is recorded as 0.963.
`UGGAUC`: “6-mer enrichment (R)” 0.957.
`UACAUU`: “6-mer enrichment (R)” 0.914.
`CACACA` — result for “6-mer enrichment (R)”: 0.894.
`AACGUG` — result for “6-mer enrichment (R)”: 0.969.
`GGGCGU` — result for “6-mer enrichment (R)”: 1.15.

Sample 3
Target: CCNA1, cyclin fold, Cln2 fusion (human)
Technique: yeast growth competition, sequencing
Matrix: yeast
Notes: strong parent motif
Relative to: not given
Reading: higher = stronger binding
Starting sequence: viral docking peptide; YKVKRRLVFGADD
`V8I`: “normalised enrichment score” 0.799.
For `V3M`, “normalised enrichment score” read 0.362.
Under “normalised enrichment score”, `A11M` is recorded as 1.37.
`V3P`: “normalised enrichment score” 0.922.
Under “normalised enrichment score”, `D12L` is recorded as 1.02.
`F9N`: “normalised enrichment score” 0.517.
For `K4E`, “normalised enrichment score” read -0.323.
For `R5K F9L`, “normalised enrichment score” read 0.178.
Under “normalised enrichment score”, `D12G` is recorded as 1.11.
For `V8M`, “normalised enrichment score” read 1.18.
For `R6C`, “normalised enrichment score” read 0.826.
`K2W` — result for “normalised enrichment score”: 0.625.
Under “normalised enrichment score”, `R5E` is recorded as 0.112.
For `D12F`, “normalised enrichment score” read 0.898.
`D12S`: “normalised enrichment score” 0.679.
Under “normalised enrichment score”, `V3Q` is recorded as 0.348.
Under “normalised enrichment score”, `F9K` is recorded as 0.289.
For `G10P`, “normalised enrichment score” read 1.79.
For `D12K`, “normalised enrichment score” read 0.833.
`R5W`: “normalised enrichment score” -0.332.
Under “normalised enrichment score”, `V3W` is recorded as -0.0378.
Under “normalised enrichment score”, `K4L` is recorded as -0.00861.
Under “normalised enrichment score”, `K2H` is recorded as 1.36.

Sample 4
Target: Centromere-binding protein 1, full length, His-tagged (CBF1, Saccharomyces cerevisiae, UniProt P17106, residues 1-351)
UniProt P17106, sequence (whole entry, looked up): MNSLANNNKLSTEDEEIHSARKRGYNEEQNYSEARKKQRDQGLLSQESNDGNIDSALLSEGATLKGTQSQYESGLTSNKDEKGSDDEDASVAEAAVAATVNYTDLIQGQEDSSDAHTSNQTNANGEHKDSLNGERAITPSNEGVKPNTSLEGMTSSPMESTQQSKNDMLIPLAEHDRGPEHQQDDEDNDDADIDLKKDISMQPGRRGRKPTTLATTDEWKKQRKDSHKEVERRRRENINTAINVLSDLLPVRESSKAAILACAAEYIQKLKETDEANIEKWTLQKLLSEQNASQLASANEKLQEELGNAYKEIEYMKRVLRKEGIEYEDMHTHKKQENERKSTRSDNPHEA
Technique: competition protein-binding microarray
Molecule type: double-stranded DNA, one strand shown
Matrix: in vitro
Tested at: 2 µM
Notes: whole 60-bp probe, lowest competitor level
With: Pho4 competitor, 0.05 µM
Reading: higher = stronger binding
`CTAACGAAGGTTTGTAAGGTGGGTGACAAGCCAAGTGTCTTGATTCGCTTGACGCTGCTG` gave a fluorescence intensity of 72.4 a.u.
`AAAGCGGTAATTTTTCACGTGTGCTCACATATCTATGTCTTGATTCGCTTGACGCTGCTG` has a fluorescence intensity of 697 a.u.
For `CTTCTGTAAATTTTTCACGTGAGCTGAGGCGCCCCGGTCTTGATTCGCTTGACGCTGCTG`, the fluorescence intensity was 997 a.u.
With `GTTGCTTGCTAATTGCATGATCAAGTTGAGCCGATGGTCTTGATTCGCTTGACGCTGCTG` the fluorescence intensity was 82.5 a.u.
`CATACCCAACCTTGTCACCGGACTTAAGATATTTGTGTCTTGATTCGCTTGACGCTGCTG` has a fluorescence intensity of 91.2 a.u.
The fluorescence intensity of `AACCAGTTGTTAAATCATGTGGTTATGGTCTTGTCGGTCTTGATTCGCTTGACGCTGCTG` is reported as 399 a.u.
The fluorescence intensity of `ATTGTCCCTTTCCATCACGTGTGGATTTAAGTAGCTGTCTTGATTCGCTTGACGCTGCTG` is reported as 3130 a.u.
With `CTTGTTTGGCTTGCTCACATGGGGCTACAGGTAAAAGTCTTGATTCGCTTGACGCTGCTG` the fluorescence intensity was 145 a.u.

Some of these lines once more (sample 2):
Under “6-mer enrichment (R)”, `GGAGUC` is recorded as 0.963.
`UGGAUC`: “6-mer enrichment (R)” 0.957.
`UACAUU`: “6-mer enrichment (R)” 0.914.
`CACACA` — result for “6-mer enrichment (R)”: 0.894.
`AACGUG` — result for “6-mer enrichment (R)”: 0.969.
